Measurements of several laboratories.
Numbered parts are unrelated; each lists some results of a single study.
Chain of UniProt Q9ZTX8 (whole entry, looked up): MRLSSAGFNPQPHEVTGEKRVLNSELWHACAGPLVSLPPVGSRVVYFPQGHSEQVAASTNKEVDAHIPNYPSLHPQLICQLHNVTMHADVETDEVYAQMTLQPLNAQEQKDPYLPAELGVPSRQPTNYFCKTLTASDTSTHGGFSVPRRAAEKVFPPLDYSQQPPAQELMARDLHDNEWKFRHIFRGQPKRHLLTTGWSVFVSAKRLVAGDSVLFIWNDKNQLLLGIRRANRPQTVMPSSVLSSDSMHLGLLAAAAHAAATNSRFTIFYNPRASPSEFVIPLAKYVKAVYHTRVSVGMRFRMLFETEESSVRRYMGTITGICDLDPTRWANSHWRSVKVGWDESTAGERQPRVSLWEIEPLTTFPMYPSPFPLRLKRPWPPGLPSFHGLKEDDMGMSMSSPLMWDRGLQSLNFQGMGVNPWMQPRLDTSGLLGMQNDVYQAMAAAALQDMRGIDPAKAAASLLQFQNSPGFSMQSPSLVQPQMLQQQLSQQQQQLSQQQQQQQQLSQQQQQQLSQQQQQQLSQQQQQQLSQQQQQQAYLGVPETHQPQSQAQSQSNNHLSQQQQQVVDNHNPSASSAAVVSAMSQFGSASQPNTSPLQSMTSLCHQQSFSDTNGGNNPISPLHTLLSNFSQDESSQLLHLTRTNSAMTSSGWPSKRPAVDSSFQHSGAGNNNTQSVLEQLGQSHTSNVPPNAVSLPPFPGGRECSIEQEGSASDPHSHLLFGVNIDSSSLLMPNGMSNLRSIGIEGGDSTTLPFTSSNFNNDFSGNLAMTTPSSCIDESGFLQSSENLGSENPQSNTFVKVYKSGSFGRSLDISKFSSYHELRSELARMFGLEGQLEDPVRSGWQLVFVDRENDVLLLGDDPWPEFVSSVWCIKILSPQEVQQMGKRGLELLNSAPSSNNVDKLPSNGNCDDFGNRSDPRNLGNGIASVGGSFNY
Chain of UniProt Q9M1R4 (whole entry, looked up): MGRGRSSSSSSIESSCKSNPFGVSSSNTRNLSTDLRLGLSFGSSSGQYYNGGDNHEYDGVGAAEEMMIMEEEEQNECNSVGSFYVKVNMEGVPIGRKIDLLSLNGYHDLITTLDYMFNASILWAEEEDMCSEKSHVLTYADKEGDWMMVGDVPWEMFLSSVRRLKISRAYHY
Chain of UniProt Q9ZSY8 (whole entry, looked up): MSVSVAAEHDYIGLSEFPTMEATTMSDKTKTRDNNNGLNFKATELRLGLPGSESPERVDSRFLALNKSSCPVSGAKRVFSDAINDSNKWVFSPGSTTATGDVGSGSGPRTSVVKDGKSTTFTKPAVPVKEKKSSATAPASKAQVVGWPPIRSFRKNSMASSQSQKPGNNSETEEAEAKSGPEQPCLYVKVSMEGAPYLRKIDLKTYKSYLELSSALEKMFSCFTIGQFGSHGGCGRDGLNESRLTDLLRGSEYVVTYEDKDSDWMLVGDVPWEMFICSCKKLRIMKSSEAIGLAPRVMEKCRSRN
Chain of UniProt Q8LAL2 (whole entry, looked up): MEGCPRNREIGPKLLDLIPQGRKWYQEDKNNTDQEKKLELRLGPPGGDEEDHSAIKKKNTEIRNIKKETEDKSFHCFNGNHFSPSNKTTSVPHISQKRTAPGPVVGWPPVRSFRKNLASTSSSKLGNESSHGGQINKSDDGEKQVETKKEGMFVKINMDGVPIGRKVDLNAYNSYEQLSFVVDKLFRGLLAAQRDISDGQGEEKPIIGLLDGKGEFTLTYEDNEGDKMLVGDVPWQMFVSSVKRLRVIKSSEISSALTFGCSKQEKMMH
Chain of UniProt Q38830 (whole entry, looked up): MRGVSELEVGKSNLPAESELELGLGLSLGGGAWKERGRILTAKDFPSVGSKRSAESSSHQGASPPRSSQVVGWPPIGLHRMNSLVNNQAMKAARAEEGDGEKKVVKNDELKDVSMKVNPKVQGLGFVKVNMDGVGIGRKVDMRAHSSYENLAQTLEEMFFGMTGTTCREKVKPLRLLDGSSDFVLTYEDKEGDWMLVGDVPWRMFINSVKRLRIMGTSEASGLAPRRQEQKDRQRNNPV
Chain of UniProt Q9C7I9 (whole entry, looked up): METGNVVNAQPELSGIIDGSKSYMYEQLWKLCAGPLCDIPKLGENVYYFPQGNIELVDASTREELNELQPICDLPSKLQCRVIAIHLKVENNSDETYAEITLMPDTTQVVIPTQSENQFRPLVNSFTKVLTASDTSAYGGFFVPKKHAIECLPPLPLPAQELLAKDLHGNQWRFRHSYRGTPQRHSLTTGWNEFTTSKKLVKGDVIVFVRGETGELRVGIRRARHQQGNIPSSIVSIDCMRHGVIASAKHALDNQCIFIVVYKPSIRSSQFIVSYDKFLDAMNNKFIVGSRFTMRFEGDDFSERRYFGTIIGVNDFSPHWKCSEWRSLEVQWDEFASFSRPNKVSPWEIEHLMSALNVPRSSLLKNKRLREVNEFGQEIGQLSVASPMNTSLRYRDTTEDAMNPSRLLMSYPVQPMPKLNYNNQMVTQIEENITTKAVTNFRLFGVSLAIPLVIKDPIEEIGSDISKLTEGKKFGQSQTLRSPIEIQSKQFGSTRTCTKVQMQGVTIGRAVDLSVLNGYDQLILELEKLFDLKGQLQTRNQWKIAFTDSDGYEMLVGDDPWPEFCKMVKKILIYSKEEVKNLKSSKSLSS
Chain of UniProt Q9LQE8 (whole entry, looked up): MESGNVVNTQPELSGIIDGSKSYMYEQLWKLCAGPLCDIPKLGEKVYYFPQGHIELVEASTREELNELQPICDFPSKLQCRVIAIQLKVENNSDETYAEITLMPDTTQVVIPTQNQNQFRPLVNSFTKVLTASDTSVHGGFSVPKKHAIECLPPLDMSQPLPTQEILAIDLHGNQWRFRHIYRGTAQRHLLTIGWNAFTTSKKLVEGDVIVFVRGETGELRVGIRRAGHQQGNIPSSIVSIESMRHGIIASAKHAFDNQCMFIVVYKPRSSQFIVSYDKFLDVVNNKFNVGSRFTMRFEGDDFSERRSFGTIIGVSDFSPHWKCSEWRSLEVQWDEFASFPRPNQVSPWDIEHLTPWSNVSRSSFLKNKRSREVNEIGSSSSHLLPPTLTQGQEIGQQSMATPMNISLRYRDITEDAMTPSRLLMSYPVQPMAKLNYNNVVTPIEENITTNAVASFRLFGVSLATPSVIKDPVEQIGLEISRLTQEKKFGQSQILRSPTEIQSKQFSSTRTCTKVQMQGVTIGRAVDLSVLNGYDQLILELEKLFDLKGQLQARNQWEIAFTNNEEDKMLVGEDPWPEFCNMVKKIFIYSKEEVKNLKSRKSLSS
Chain of UniProt Q8RYC8 (whole entry, looked up): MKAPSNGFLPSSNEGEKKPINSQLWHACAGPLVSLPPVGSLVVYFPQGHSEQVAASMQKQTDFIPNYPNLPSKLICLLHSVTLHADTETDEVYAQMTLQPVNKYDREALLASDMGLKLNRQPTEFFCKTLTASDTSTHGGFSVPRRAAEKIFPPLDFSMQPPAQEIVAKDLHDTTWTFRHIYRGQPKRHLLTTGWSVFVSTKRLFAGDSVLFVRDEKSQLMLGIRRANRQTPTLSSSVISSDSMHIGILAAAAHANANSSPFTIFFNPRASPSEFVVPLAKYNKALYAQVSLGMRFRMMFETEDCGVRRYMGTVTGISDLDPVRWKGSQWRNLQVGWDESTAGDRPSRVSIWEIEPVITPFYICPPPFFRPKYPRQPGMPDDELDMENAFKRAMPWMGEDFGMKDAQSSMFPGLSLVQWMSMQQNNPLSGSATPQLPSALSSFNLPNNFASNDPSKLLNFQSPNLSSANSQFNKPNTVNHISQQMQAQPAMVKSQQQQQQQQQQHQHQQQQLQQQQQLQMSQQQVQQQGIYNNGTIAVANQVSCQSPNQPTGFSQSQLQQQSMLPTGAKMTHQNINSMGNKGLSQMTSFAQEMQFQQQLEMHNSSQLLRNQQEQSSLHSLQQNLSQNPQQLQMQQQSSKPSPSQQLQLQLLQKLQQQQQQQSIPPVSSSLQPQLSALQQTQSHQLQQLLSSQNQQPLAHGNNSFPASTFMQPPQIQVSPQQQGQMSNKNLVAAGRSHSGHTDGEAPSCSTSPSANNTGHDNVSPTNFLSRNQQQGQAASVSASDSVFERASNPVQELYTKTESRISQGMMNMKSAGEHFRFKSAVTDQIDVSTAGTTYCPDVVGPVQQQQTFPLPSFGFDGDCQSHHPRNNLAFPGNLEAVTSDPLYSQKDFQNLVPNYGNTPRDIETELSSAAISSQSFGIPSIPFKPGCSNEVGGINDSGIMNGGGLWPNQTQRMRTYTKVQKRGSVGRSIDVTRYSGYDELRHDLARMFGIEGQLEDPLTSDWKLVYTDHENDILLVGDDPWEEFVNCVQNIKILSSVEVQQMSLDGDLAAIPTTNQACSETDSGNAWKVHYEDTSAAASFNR

Sample 1
Target: Fragile X messenger ribonucleoprotein 1, C-terminal low-complexity region (Fmr1, Mus musculus, UniProt P35922)
Technique: RNA Bind-n-Seq
Molecule type: RNA
Medium: in vitro
Concentration: 200 nM
Setting: whole 134-nt RNA, ends assumed
Added: 150 mM LiCl
Reference: input library
Direction: higher = stronger binding
Each molecule: 7-deaza-guanosine replaces G
| Sequence | log2 enrichment |
| --- | --- |
| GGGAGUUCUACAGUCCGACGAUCUCUCUUGCUCAAGUUUUCUCUCACAGAUGACAGCCACCUACCACAUAACAUGACCAGCAAACGGACUGUUCCUAGUCCAGAGGGCCUUGCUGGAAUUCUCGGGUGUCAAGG | 2.03 |
| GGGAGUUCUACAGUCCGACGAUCUCCUGUGCUACACAUCGUAUGUACCGAAUCGGUUUUUUGGGUUUUUUGGGUUUUUUGGGAAAGUAUUAUGUUACGCCGUUCGGAUCUGCAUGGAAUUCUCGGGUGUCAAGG | -0.344 |
| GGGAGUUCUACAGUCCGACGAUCACCAUGCAGGUGGGCAUCUUUGGGAAGUGGGGCAAGGGGGGGAUAGGGAGGGGGGUAACACUUUGGGAACAGGUGGUCCCUGGUCGUUUCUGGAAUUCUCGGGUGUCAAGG | 1.32 |
| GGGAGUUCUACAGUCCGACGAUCGCAGGAAGUAAAAACAAAUGGAAAUGCUUCGGAUAGUGGCAGGGGUGGGGGUUGCUAAGGAAAGGGUGGGAUCGGAGUGGGUAAAGAGUUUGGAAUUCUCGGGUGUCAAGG | 0.842 |
| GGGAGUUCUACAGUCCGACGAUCCACAGACAACACGCACCCACACAGACACAGAGGGAAGGGGUUGGGAUGGGGACAGGGUGCACAGCAGGGCGGGGUAGGACCGCAGCCCCUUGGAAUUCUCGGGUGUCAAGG | -0.29 |
| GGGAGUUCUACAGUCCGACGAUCCACAGACAACACGCACCCACACAGACACAGAGGGAAGGGGUUGGGAUGGGGACAGGGUGCACAGCAGGACGGGGUAGGACCCCAGCCCCUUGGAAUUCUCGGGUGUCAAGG | -0.0436 |
| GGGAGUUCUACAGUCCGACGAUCAAGUCCUGUGCUACACAUCGUAUGUACCGAAUCGGGUUUGGGAAAGGGUUUUUGGGAAAGUAUUAUGUUACGCCGUUCGGAUCUGCACUUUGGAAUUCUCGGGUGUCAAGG | -1.81 |
| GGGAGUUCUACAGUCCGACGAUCGCAUGAAGUAAAAACAAAUGGAAAUGCUUCGGAUAGUGGCAGGGGUGGGGGUUGCUAAGGAAAGGGUGGGAUGGGAGUGGGUAAAGAGUUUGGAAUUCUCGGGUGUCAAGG | 1.23 |
| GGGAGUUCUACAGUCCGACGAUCCUCAAGUCCUGUGCUACACAUCGUAUGUACCGAAUCGGGCCGGGCCGGGCCGGAAAGUAUUAUGUUACGCCGUUCGGAUCUGCACUUCCAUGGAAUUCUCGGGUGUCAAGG | 0.978 |
| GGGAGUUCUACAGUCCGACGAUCAGUCCUGUGCUACACAUCGUAUGUACCGAAUCGGGCCCCGGGGCCCCGGGGCCCCGGAAAGUAUUAUGUUACGCCGUUCGGAUCUGCACUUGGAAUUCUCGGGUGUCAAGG | 0.455 |
| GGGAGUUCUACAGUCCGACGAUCAGUCCUGUGCUACACAUCGUAUGUACCGAAUCGGGAGGGUUUUUUUGGGUUUUUGGGAAAGUAUUAUGUUACGCCGUUCGGAUCUGCACUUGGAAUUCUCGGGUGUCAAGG | -1.53 |

Sample 2
Target: RNA binding protein fox-1 homolog 2, RRM domain, GST-SBP tag (RBFOX2, Homo sapiens, UniProt O43251-10, residues 100-194)
Technique: RNA Bind-n-Seq
Molecule type: RNA
Medium: in vitro
Concentration: 365 nM
Setting: natural RNA segment, single round, ends assumed
Reference: no-protein control
Direction: higher = stronger binding
Target sequence (chain): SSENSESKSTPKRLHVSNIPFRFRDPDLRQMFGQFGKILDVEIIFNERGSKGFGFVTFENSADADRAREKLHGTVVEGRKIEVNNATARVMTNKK
| Sequence | RBNS enrichment (R) |
| --- | --- |
| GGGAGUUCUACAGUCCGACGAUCCCGACUUUACAUGCUCAGAAUGCUGUGCACAAGCCACGCUUUCUAAAGCCCAUCCAGAUUAGUUUAGCUCUGACCACUAAUGGCAGGUCUUAAGGACCUUGUGAUUAGUCUGGAAUUCUCGGGUGCCAA | 0.286 |
| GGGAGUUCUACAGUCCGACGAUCGAGGCACUUCCUUGGGGUCUUUCUCUAGGGUCUCUUCUCUACAAAGCACAACACUAAUGUUCGUUUCCUUAGACCUCAGUUCAAGUGCCCCUAUUUAUUUCAAUAAGAACUGGAAUUCUCGGGUGCCAA | 0.385 |
| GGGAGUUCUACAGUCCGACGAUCCAGGAGCUACUCAGGAAGGAACGUCUGGUCCUAACCAGUGAGCACUGGUUAGUACUGGUCCCCUUCUGGGCAACAUGGCCCUACCAGACACUGCUGCUGCCCCGUCGGCAUGGAAUUCUCGGGUGCCAA | 0.204 |
| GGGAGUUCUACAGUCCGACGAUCUCAUUAUUUCUAUUACCAUGGAUAAAAAAGUCAGCUGCUACGUUGAUAUCCCUUCUAUGAGCACAUUCUUAGCAGAAGAAAACAAUCCAACUACCAACACCCGACUCUAUUGGAAUUCUCGGGUGCCAA | 0.593 |
| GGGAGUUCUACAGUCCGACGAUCAUCACCUAGGACUGACUCGGCAGUGUGCAGUGGUGCAUGCACUGUCUCAGCCAACCCGCUCCACUACCCGGCAGGGUACACAUUCGCACCCCUACUUCACAGAGGAAGAAUGGAAUUCUCGGGUGCCAA | 0.852 |
| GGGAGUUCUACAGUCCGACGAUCUAUAGUUGCUCUAUCUCAGAUAACUUAUGUUCAAAAGGAGAAUGAAGCCGGGCAUGGUGGCGCAUGCCUUUAAUCCCAGCGCUUGGAGGCAGAGGCAGGUGGAUUUCUGAUGGAAUUCUCGGGUGCCAA | 0.454 |
| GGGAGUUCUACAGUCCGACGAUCGAGGGAGAAGACUGCACGAGAGUGAUGCGCAUUUCGAGUCUGCUUUUCGAUAGUUGAUGUCUUCUUGCCUUUUUAAAAAACCAUAUAUAUAUAAAGUUUAGGGUUUGCUCUGGAAUUCUCGGGUGCCAA | 3.36 |
| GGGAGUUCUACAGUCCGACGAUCAAACUGGGCGAGACAGAGCAUGUUUGCAGUCCUAGCAUUCAGCAGGUAGAGACAGGAAGAUGAGAAGUGCAAAGUAGUCUCGGCUAGGUAGUGUCAGGACUAUCCUGUGCUGGAAUUCUCGGGUGCCAA | 9.02 |
| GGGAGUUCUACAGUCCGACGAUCAAACAUCACGCUCCCCUGUAUGGGGAGAAGAAGGGUCAAGAUGGAUUUCUGCAGUUCCUGCGUUGGGCAGUAGGGUGAAGAGUGGGGCCAUCAUCUCAUAAAAGGAAUUCUGGAAUUCUCGGGUGCCAA | 0.492 |
| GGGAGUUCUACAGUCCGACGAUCUUUAGGGGGUUUGUUUGUUGGGUUGUUUUUUGUUUUUUGGUUUUUUUUAAUGACAAUGAAGUGACACUUUGACAUUUCCUACCUUUUGAGGACUUGAUCCUUCUCCAGGAUGGAAUUCUCGGGUGCCAA | 1.69 |
| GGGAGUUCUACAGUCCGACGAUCCAUUCAGAAAGCAUGCUGUGUGGGGGCUGCUUCUCAGGAGGCCAGGCCCUUCUGAGCGGAACCGUCCUGGAGAGAGCCUGCCCUCGUUUCCAGGCUGCAGCCGUAACGCAUGGAAUUCUCGGGUGCCAA | 4.47 |
| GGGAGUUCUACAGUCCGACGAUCAGCCCCUGCUCACAUCACAGCUGUCUGAAGAACAGUGAGGUGGAGUGCCUAGAACUCCCGUGGUGGUCCUGAGCAGAGAGGAGGAUGUCCUCCUGCCUGCCUGAAGGUCUUGGAAUUCUCGGGUGCCAA | 0.33 |

Sample 3
Molecule: B1 (IAA1)
Technique: two-hybrid
Direction: higher = firmer interaction
B1: IAA1 (Arabidopsis thaliana, UniProt P49677); chain MEVTNGLNLKDTELRLGLPGAQEEQQLELSCVRSNNKRKNNDSTEESAPPPAKTQIVGWPPVRSNRKNNNNKNVSYVKVSMDGAPYLRKIDLKMYKNYPELLKALENMFKFTVGEYSEREGYKGSGFVPTYEDKDGDWMLVGDVPWDMFSSSCQKLRIMKGSEAPTAL
| partner | setting | reference | positive tests |
| --- | --- | --- | --- |
| IAA27 (Arabidopsis thaliana, UniProt Q9ZSY8) | – | out of 2 tests | 2 |
| ARF19 948-1086 (Arabidopsis thaliana, UniProt Q8RYC8) | – | out of 4 tests | 4 |
| ARF20 484-590 (Arabidopsis thaliana, UniProt Q9C7I9) | – | out of 4 tests | 1 |
| IAA26 (Arabidopsis thaliana, UniProt Q8LAL2) | – | out of 2 tests | 0 |
| IAA2 (Arabidopsis thaliana, UniProt P49678) | – | out of 4 tests | 3 |
| ARF6 790-935 (Arabidopsis thaliana, UniProt Q9ZTX8) | – | out of 4 tests | 2 |
| IAA12 (Arabidopsis thaliana, UniProt Q38830) | – | out of 4 tests | 1 |
| IAA30 (Arabidopsis thaliana, UniProt Q9M1R4) | weak activation fusion | out of 4 tests | 2 |
| ARF14 497-605 (Arabidopsis thaliana, UniProt Q9LQE8) | – | out of 2 tests | 0 |

Sample 4
Target: Histone acetyltransferase KAT6A, winged helix 1, GST fusion (KAT6A, Homo sapiens, UniProt Q92794, residues 1-85)
Technique: protein binding microarray
Molecule type: double-stranded DNA, one strand shown
Medium: in vitro
Concentration: not given
Setting: 8-mer, flanks averaged, mean of 2 arrays, mostly near background
Reference: not given
Direction: higher = stronger binding
Construct (chain): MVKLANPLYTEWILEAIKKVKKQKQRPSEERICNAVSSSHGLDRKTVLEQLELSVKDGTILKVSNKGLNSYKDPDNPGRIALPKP
| Sequence | E-score |
| --- | --- |
| CCCGCCGA | 0.439 |
| ACAAATAA | -0.176 |
| CCTAACCC | 0.14 |
| GCGGACAC | 0.272 |
| AAGTTGAA | -0.298 |
| CAACGATA | -0.0335 |
| CTATACTA | -0.0412 |
| CCCCGGAG | 0.05 |
| ACGGTTCA | 0.0712 |
| ACCGGATC | 0.112 |
| GCTTAGTA | 0.123 |
| ACCATTAT | -0.0985 |
| CAGACTGG | -0.223 |
| CCATTCTC | -0.231 |
| CGGGGTGA | 0.00736 |
| GTTTGAGA | -0.176 |
| AAGCATCG | -0.0325 |
| GCAGATGC | -0.0984 |
| ATAAAGCG | 0.194 |
| AACGGGGC | 0.273 |
| ATTGTAGG | -0.245 |
| CCCATCCG | -0.0381 |
| GGATCGAA | 0.0618 |
| ATTCGTTC | -0.218 |
| CATACCCG | 0.281 |
